Published values from different studies.
Lines come from different studies, so protocols differ. ± marks the error that the study gave.
HDAC1: Histone deacetylase 1 (HDAC1, Homo sapiens, UniProt Q13547)
UniProt Q13547, sequence (whole entry, looked up): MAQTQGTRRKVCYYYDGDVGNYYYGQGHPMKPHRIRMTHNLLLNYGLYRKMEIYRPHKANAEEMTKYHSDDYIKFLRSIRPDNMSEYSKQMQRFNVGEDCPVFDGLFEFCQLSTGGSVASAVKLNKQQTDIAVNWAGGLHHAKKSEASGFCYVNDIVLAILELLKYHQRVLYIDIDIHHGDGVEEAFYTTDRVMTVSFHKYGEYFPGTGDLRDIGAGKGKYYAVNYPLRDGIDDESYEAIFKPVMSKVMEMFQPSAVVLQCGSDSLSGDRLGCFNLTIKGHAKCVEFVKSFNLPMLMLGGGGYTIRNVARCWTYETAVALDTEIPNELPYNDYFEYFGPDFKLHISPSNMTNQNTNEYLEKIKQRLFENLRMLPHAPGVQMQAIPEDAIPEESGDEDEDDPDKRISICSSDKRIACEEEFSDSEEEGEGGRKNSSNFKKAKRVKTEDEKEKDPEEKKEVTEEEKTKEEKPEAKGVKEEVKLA
Kir3.1/Kir3.2: Kir3.1/Kir3.2 (Homo sapiens, UniProt P48051+P48549)
UniProt P48549, sequence (whole entry, looked up): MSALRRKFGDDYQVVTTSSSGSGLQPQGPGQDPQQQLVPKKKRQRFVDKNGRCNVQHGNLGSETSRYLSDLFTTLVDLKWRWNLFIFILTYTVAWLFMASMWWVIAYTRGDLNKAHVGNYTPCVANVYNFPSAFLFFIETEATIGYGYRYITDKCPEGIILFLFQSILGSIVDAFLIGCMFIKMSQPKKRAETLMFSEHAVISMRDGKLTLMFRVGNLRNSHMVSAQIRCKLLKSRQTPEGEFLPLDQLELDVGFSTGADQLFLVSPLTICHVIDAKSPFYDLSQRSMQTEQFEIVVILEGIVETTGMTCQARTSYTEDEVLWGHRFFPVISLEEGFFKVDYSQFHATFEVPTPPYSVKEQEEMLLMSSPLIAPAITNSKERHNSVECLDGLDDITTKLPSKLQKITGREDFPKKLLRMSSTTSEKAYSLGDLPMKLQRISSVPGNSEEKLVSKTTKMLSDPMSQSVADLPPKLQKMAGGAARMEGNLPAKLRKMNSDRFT
UniProt P48051, sequence (whole entry, looked up): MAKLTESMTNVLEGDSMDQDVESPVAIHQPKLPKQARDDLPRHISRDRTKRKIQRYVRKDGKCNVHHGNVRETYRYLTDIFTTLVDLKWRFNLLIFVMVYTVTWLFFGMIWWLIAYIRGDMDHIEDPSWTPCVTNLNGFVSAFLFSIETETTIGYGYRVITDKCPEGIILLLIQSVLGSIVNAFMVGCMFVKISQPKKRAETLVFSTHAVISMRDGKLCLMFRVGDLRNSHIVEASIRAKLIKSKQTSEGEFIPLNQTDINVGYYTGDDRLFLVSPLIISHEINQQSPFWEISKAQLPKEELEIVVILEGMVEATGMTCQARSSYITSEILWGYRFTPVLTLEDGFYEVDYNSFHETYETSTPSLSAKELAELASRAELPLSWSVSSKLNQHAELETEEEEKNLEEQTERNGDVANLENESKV
B1: UGT1A9 (Homo sapiens, UniProt O60656); chain GKLLVVPMDGSHWFTMRSVVEKLILRGHEVVVVMPEVSWQLGRSLNCTVKTYSTSYTLEDLDREFKAFAHAQWKAQVRSIYSLLMGSYNDIFDLFFSNCRSLFKDKKLVEYLKESSFDAVFLDPFDNCGLIVAKYFSLPSVVFARGILCHYLEEGAQCPAPLSYVPRILLGFSDAMTFKERVRNHIMHLEEHLLCHRFFKNALEIASEILQTPVTEYDLYSHTSIWLLRTDFVLDYPKPVMPNMIFIGGINCHQGKPLPMEFEAYINASGEHGIVVFSLGSMVSEIPEKKAMAIADALGKIPQTVLWRYTGTRPSNLANNTILVKWLPQNDLLGHPMTRAFITHAGSHGVYESICNGVPMVMMPLFGDQMDNAKRMETKGAGVTLNVLEMTSEDLENALKAVINDKSYKENIMRLSSLHKDRPVEPLDLAVFWVEFVMRHKGAPHLRPAAHDLTWYQYHSLDVIGFLLAVVLTVAFITFKCCAYGYRKCLGKKGRVKKAHKSKTH
UniProt Q96D96, sequence (whole entry, unmodified, looked up): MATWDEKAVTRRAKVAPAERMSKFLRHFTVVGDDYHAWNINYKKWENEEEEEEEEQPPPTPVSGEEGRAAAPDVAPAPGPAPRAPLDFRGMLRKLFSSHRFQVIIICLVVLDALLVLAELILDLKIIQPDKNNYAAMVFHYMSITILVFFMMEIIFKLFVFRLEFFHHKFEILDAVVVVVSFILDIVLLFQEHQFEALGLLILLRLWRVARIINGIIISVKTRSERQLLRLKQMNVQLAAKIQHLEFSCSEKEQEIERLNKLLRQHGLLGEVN
UniProt P28062, sequence (whole entry, looked up): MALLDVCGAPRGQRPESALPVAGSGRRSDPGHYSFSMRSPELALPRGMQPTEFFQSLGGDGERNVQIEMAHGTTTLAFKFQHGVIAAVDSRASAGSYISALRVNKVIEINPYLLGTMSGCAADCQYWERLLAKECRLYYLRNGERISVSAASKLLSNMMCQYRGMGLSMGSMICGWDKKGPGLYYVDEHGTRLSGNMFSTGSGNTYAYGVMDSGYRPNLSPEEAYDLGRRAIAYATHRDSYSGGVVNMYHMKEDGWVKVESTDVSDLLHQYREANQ
UniProt Q8WUI4, sequence (whole entry, looked up): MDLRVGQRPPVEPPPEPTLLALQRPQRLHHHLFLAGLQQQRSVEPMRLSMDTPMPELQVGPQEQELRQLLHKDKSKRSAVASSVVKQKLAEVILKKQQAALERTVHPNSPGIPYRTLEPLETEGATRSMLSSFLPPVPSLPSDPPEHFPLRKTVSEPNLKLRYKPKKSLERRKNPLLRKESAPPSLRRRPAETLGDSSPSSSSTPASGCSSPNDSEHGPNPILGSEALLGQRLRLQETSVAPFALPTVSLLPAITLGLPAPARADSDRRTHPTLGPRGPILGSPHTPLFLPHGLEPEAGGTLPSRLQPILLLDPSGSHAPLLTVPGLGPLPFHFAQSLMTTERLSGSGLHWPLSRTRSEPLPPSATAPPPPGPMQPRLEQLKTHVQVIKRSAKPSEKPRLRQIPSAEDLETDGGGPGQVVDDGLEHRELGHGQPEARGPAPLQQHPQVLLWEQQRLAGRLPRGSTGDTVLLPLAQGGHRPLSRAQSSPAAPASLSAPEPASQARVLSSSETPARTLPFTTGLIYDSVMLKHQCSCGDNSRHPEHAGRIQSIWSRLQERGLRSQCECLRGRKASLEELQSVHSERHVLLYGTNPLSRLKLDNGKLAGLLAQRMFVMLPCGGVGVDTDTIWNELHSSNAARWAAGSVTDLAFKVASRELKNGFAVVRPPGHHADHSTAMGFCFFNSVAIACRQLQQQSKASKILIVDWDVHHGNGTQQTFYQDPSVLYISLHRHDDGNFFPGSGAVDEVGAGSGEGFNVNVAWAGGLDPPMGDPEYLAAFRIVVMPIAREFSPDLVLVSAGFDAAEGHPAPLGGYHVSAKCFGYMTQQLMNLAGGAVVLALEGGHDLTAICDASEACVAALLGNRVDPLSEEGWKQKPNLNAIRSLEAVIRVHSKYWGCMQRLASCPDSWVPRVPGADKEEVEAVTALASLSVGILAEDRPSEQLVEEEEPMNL
UniProt P20618, sequence (whole entry, looked up): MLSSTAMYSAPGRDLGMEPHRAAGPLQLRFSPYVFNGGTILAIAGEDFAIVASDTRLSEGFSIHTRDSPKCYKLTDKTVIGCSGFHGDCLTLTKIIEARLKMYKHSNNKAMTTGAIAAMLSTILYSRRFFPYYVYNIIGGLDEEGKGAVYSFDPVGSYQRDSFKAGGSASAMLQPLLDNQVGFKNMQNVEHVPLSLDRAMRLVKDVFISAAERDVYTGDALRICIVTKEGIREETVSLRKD
UniProt P11229, sequence (whole entry, looked up): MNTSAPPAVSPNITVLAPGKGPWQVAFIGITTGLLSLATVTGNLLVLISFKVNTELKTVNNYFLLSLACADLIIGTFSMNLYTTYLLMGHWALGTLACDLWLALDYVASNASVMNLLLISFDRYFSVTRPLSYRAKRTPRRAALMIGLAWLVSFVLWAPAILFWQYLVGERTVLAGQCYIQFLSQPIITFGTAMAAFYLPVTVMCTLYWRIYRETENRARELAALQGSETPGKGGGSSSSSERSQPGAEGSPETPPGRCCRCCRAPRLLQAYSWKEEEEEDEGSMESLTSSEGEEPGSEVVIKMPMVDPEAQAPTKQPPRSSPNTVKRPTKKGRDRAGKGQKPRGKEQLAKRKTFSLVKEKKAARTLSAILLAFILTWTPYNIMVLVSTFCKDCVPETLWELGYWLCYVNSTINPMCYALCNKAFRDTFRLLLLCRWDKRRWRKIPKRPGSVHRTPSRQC
UniProt Q9GZT9, sequence (whole entry, looked up): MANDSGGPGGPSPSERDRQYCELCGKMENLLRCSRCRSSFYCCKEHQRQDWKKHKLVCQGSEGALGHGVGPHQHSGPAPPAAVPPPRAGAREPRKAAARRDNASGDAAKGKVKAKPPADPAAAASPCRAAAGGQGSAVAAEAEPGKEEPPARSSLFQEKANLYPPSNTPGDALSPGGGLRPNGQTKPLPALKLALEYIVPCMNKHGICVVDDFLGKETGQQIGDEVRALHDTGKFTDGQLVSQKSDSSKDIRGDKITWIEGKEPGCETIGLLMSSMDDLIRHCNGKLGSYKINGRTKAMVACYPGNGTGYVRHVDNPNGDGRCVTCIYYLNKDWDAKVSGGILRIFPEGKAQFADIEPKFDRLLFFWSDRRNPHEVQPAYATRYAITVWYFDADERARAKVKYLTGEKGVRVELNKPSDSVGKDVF
UniProt P56817, sequence (whole entry, looked up): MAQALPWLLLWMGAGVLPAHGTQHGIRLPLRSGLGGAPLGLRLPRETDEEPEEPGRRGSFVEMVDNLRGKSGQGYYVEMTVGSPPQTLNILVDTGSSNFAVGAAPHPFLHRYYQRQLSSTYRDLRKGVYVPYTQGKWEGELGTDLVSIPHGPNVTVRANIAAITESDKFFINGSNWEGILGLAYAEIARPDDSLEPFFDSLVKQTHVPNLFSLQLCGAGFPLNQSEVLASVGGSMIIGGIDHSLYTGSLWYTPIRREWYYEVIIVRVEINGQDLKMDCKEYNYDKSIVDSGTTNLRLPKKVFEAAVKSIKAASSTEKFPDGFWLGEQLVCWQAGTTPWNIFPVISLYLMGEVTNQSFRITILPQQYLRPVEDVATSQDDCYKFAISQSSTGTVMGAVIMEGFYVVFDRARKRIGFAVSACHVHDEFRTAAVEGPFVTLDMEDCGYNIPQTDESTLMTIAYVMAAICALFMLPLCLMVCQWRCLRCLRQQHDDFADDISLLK

Oc1cccn(Cc2cn(-c3ccccc3)nn2)c1=S  IC50 (HDAC1; enzyme activity, inhibitor, SAMDI mass spectrometry): > 10 µM
RDGAWFA  inhibition (peptide, human polyclonal IgM RF SOR; concentration not given, 5 µg/mL mAb II-481 coated, added: RF at 50% max binding concentration): 14%
N=c1n(Cc2ccccc2)c2ccccc2n1CC(O)COc1cccc(Cl)c1 (stereo not drawn)  IC50 (Kir3.1/Kir3.2; ion flux): 2.83 µM
CC(C)Cn1c(=O)n(C)c(=O)c2[nH]cnc21  IC50 (phosphodiesterase bovine brain; enzyme activity, inhibitor; pH 7.4, 30 °C, calmodulin-activated, added: cAMP 0.01875 mM): 5.6 µM
CC(C)(Sc1ccc(CCN(CCCCC2CCCCC2)C(=O)NC2CCCCC2)cc1)C(=O)O  IC50 (USP8 (Homo sapiens, UniProt P40818)): > 114 µM
B1 (UGT1A9)  Vmax/Km (CCCc1ccc(O)cc1; steady-state kinetics; pH 7.4, 37 °C): 42 µL/min/mg
Mg-ATP  IC50 (TRPM7 (Homo sapiens, UniProt Q96QT4); ion current, inhibitor, whole-cell patch clamp; pH 7.2, intracellular, Mg complex, added: 790 µM free Mg2+): 2000 ± 760 µM
C[C@H](CCC(=O)O)[C@H]1CC[C@H]2[C@@H]3CC[C@@H]4C[C@H](OC(=O)CCCCCC(=O)O)CC[C@]4(C)[C@H]3CC[C@]12C  IC50 (human 20S proteasome; chymotrypsin-like activity, inhibitor; added: PA28): > 10 µM
CIKVAVS  inhibition (peptide, human polyclonal IgM RF MCC; concentration not given, 5 µg/mL mAb II-481 coated, added: RF at 50% max binding concentration): 0%
GAGUUGAGUUGAGUUGAGUUGAGUUGAGUUGAGUUGAGUUGAGUUGAGUUGAGUU (ssRNA; single strand)  Kd (mtrB full length assumed R58A (Bacillus subtilis, UniProt P19466); filter binding; added: L-tryptophan 1 mM): 0.026 ± 0.003 µM
CCC(=O)c1ccc(Oc2ccc(Cl)cc2Cl)c(O)c1  IC50 (ENR (Toxoplasma gondii, UniProt Q6UCJ9); enzyme activity, inhibitor, absorbance): 0.38 µM
Cc1ccccc1-c1ccc(Cn2cccc(O)c2=S)cc1  IC50 (HDAC1; enzyme activity, inhibitor, SAMDI mass spectrometry): > 10 µM
OC1CC2CCC(C1)N2CCCN1c2ccccc2Sc2ccc(Cl)cc21 (stereo not drawn)  IC50 (Beta-secretase 1 (BACE1, Homo sapiens, UniProt P56817); inhibitor, FRET; pH 4.5): 127 ± 38 µM
[Cl-].[Cl-].[Zn+2]  IC50 (HVCN1 (Homo sapiens, UniProt Q96D96, H193A); proton current, inhibitor, whole-cell voltage clamp; human cells; pH 6.5, test pulse 100 mV): 87.8 µM
N#Cc1ccc(OCC(O)Cn2c(=N)n(Cc3ccccc3)c3ccccc32)cc1 (stereo not drawn)  IC50 (Kir3.1/Kir3.2; ion flux): 5.27 µM
O=c1cc(CO)occ1O  IC50 (Egl nine homolog 1 (EGLN1, Homo sapiens, UniProt Q9GZT9); ODDD peptide hydroxylation, inhibitor, MALDI-TOF MS; pH 7.00, 37.0 °C, added: 2-oxoglutarate 10 µM): 400 µM
O=C(C=Cc1ccc(O)c(O)c1)NCCCNCCCCNC(=O)CCc1ccc(O)c(O)c1  IC50 (CHRM1 (Homo sapiens, UniProt P11229); calcium signal, antagonist, fluorescence): 0.863 µM
O=C(O[C@@H]1Cc2c(O)cc(O)cc2O[C@@H]1c1cc(O)c(O)c(O)c1-c1c([C@H]2Oc3cc(O)cc(O)c3C[C@H]2OC(=O)c2cc(O)c(O)c(O)c2)cc(O)c(O)c1O)c1cc(O)c(O)c(O)c1  IC50 (mRNA triphosphatase Cet1 (Trypanosoma brucei brucei, UniProt Q582T2); enzyme activity, Transcreener ADP fluorescence polarization; 3 h, added: 50 µM ATP): 0.03 µM
C[C@H](NC(=O)C[C@H](CC(=O)NC(C)(C)C)NC(=O)CCc1ccccc1)C(=O)NCc1cccc2ccccc12  IC50 (Proteasome component C5/PSMB8 (Homo sapiens, UniProt P20618+P28062); chymotrypsin-like activity, inhibitor; added: ac-ANW-AMC): 3.35 ± 0.64 µM
Cc1ccc(-c2ncn(-c3ccc(Nc4nccc(-c5cccc(N6CCOCC6)c5)n4)cc3)n2)cn1  IC50 (MAPK9 (Homo sapiens, UniProt P45984); enzyme activity, inhibitor, TR-FRET): ~0.2 µM
Cc1nc2ccccc2n1Cc1ccc(C(=O)NO)cc1  IC50 (HDAC7 (Homo sapiens, UniProt Q8WUI4); concentration not given): 0.0872 µM
